Measured values collected from several papers.
A part holds a random share of what one study measured. Substitutions count along the parent as printed.

Set 1
Target: XBP1, bZIP domain (human)
Method: DHFR protein complementation
Medium: yeast
Setting: single substitutions, most at no-binding floor
Relative to: wild-type JUN-FOS pair
Direction: higher = stronger binding
Parent: JUN, bZIP domain (human); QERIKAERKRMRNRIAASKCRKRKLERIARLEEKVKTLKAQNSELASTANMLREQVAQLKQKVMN; partner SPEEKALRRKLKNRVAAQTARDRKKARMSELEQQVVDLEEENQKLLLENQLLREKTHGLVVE
Variant | binding fitness [natural log]
Q41P | -1.49
E32P | -1.5
T48F | -1.41
K36M | -0.631
K34P | -1.48
K36C | -1.02
K36F | -1.3
E44N | -1.07
M51H | -0.906
E44A | -0.768
A29V | -1.11
E32D | -1.33
K36G | -1.26
A29R | -0.68
K39Y | -1.23
T48M | -0.662

Set 2
Target: ABI1, truncated, D143A, DHFR fusion (Arabidopsis thaliana)
Method: DHFR PCA, deep sequencing
Medium: yeast
Setting: methotrexate growth selection, single substitutions
Added: (+)-ABA 58 µM
Relative to: wild-type fitted maximum
Direction: higher = stronger binding
Parent: PYL1, truncated, DHFR fusion (Arabidopsis thaliana); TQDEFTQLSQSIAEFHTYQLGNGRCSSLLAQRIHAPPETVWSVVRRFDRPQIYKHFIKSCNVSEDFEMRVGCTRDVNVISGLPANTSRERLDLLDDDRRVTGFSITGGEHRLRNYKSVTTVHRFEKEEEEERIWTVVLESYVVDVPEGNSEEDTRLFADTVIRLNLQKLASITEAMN
Variant | relative binding score
V137T | 12.6%
Q7K | 86.4%
A84D | 6.6%
N85A | 88.9%
R98L | 84.5%
N177F | 76.2%
L169C | 1.97%
A158P | -4.12%
V100E | -2.52%
A35C | 80.8%
E130W | 72.1%
R99L | 97.4%
E131C | 94%
V76K | -17.9%
L93V | 96.1%
V161T | 23%
L164K | 72.6%

Set 3
Target: Sal-like protein 4, full length isoform B (SALL4, Homo sapiens, UniProt Q9UJQ4-2, residues 1-616)
Method: universal PBM
Form: double-stranded DNA, one strand shown
Medium: in vitro
Concentration: not given
Setting: 8-mer, flanks averaged, mean of replicates
Direction: higher = stronger binding
Sequence | E-score
CACTCACC | -0.122
CGACCAGC | -0.188
GCCCTGAA | -0.133
CTTGAGAC | -0.145
AATCACGC | -0.036
GGCTTTAA | 0.0695
CAGTGGGA | -0.211
GGCCCGCC | -0.274
ACTGCAAA | 0.132
ATCTGGAA | 0.0876
GAACTCAA | -0.0729
CAGAAGGC | -0.224
AAGCTTGA | 0.00264
AAGCATTC | 0.125
ATAGTCAA | 0.17
CTGGGCTC | -0.257
CTTAGGTA | -0.0395
GGTTTGTA | 0.04

Set 4
Target: CCND3, cyclin fold, Cln2 fusion (human)
Method: yeast growth competition, sequencing
Medium: yeast
Setting: weak parent motif
Relative to: not given
Direction: higher = stronger binding
Parent: PKN2 docking peptide (human); VSAVQKLDFSDTM
Variant | normalised enrichment score
V1D | 0.0723
M13Y | 0.218
F9Y | 0.131
K6L | 0.0913
T12I | 0.113
T12C | 0.193
S10K | 0.136
A3F | 0.0626
T12W | 0.144
L7G | 0.0547
D11T | 0.0959
V4G | -0.0446

Set 5
Target: Hepatocyte nuclear factor 3-alpha (Foxa1, Mus musculus, UniProt P35582, residues 1-468, full length assumed)
Method: EMSA with sequencing
Form: double-stranded DNA, one strand shown
Medium: in vitro
Concentration: 10 and 20 nM
Setting: whole designed probe, mean of two concentrations, ends assumed
Relative to: negative control set to 0
Direction: higher = stronger binding
Shared flanks, not repeated: GTGAGCGGTGCCCATTGATGGGGAAC … TTTCACTGGGATCGTGGGGAC
Construct (chain): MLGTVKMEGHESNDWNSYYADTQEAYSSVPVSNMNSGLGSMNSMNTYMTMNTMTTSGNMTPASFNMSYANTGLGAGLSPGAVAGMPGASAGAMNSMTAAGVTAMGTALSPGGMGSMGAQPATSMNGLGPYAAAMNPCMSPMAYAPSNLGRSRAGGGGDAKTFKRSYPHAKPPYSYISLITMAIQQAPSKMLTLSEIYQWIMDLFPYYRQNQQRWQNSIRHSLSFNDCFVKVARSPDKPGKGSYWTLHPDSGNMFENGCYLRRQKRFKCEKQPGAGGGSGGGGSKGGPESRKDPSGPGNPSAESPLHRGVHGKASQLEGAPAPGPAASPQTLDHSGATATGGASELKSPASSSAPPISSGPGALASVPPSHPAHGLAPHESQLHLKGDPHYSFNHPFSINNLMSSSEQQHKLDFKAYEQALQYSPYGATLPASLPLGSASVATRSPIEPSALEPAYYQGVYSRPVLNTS
Sequence | normalised bound fraction
ATCTTCCCCCTCTTCCTTGCCCCACCAGCTCACCTTCCCGGGTTATTTGCAGATAGGAAAATAAATAAAGCCGGCATTCGTTAACCCTCTTCTGGCGCACAACGTGGTCCGTATTTGTTGAATCATGGTCCTTTGGCGACGCCAGGCTCCGGGAGAGCAAAGCACCGTGTCAGGGCCATGATCCGGGGTGGCC | 0.346 ratio
TTATTGCTACAGATATTTTACAATTAGTATTTCTATGTAAGCACATAGGCTATTATCAAGGACAATTTATTTAGCACTTATTTTGAAATTATATGTAAACATGCAAACAAATAAGAACCCAAGAGTATAAACTCTATGACAAAAGTCAGTATGCAAGCATTAAGAACTCTTTCAGAAATGTGTATTTAAAATG | 0.37 ratio
ATCTTCCCCCTCTTCCTTGCCCCACCAGCTCACCTTCTGCGCTTGATTGCAGATAGGAAAATAAATAAAGCCGGCATTCGTTAACCCTCTTCTGGCGCAAACTGCTGTTTGCTCTGGATGAATCATGGTCCTTTGGCGACGCCAGGCTCCGGGAGAGCAAAGCACCGTGTCAGGGCCATGATCCGGGGTGGCC | 0.318 ratio
TTTCAAATAAAACAATGTCTTTAAAGAGGACTAAGATTGCAAATGAATGCTTTTAAAGAAATGCAGGAGGATAAATTAGCAAGCAGGAAACAATGTAAACAAATATTTGTGTCCAATTATTGAAAGTGTTTCAATAAGCATGGATAAAGTGGCCTTTAAGCAATCATGATACAGCTAAAAAAGACAATTTTAG | 0.463 ratio
ACGGAGATTGCAGAGTGACTGTTCCCCTGGGGGACCCTAGGCTTGTCCTCGCGTTACCTTTGTCCCATCAGTTGCTGCTCTGGCTGGGGAAGTAGATTACATTGGCTGCTGTGTGCTGCTGCTAGGAATTTTGAGGAGTGTGCACTTTTTTTTTTTTTTTTTTGCTGTTGTTGAGGCGGAGTCTCGCTCTGTC | -0.0574 ratio
CTTCAAAGTAGCTCCCATATGGACTGAATATAGGATACGAGCCTCTGCCTAGCCTTCAGTCCTTTTTGTTTGGTTTAGGTGTTGGTTGTCTTTGTAAACACTGGAAGCTGCTGAGTGTTCTCCCTCGGCTTTTTCCATCACACTTTACCCCACATACATTCATACACACTTGGCTCAAGCTTTTCGGTTCTTT | 0.361 ratio
TCATGAGATTGAAATTACTTTTGTTAAGTGTAATCTCTTCACAAAAGTGTTGAGATTACTTTTGTTAAGTGTAATCTCTTCACAAAAGTGTTGAGATTACTTTTGTTAAGTGTAATCTCTTCACAAAAGTGTTGAGATTACTTTTAAGTGTAATCTCTTCTTTTGTAATACTCTTTTGTAGTATTTTTCAACT | 0.0251 ratio
ATCTTCCCCCTCTTCCTTGCCCCACCAGCTCACCTTCCCGGGTTATTTGCAGATAGGAAAATAAATAAAGCCGGCATTCGTTAACCCTCTTCACGCGCATACTGCTGTTTGCTCTGCATGAATCATGGTCCTTACGCGACGCCAGGCTCCGGGAGAGCAAAGCACCGTGTCAGGCGCATGATCCGGGCTCGCC | 0.347 ratio

Set 6
Target: CRIPT, C-terminal peptide
Method: DHFR complementation, deep sequencing
Medium: yeast
Setting: single substitutions, model-inferred values
Relative to: wild type
Direction: higher = weaker binding
Parent: ERBIN, PDZ domain 1 (human); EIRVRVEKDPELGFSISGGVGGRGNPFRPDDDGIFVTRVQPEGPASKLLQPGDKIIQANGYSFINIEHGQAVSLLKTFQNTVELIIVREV; partner TKNYKQTSV
Variant | binding free energy change
P10R | -0.785 kcal/mol
V87A | -0.0738 kcal/mol
F27A | 1.08 kcal/mol
I34C | 0.789 kcal/mol
L48G | 0.233 kcal/mol
L12E | 1.47 kcal/mol
D30S | 0.175 kcal/mol
G43R | 0.225 kcal/mol
V39S | 0.603 kcal/mol
S62W | 0.0218 kcal/mol
Y61S | 0.0142 kcal/mol
G24A | 1.54 kcal/mol
R88C | 0.415 kcal/mol
S17A | -0.146 kcal/mol
G13V | 0.44 kcal/mol
R38N | 0.221 kcal/mol
P41T | 0.267 kcal/mol
S62H | 0.0598 kcal/mol
E1H | 0.108 kcal/mol
R88G | 0.584 kcal/mol

For quick reference, copied from above (set 3):
Sequence | E-score
CACTCACC | -0.122
CGACCAGC | -0.188
GCCCTGAA | -0.133
CTTGAGAC | -0.145
AATCACGC | -0.036
GGCTTTAA | 0.0695
